Results pooled from the literature.
Each numbered part is a random draw from the data of one study; scales do not carry over between parts. Substitutions count along the parent as printed.

Study 1 — method: DHFR PCA, deep sequencing; matrix: yeast; together with: (+)-ABA 0 µM; relative to: wild-type fitted maximum; direction: higher = stronger binding
Target: ABI1, truncated, D143A, DHFR fusion (Arabidopsis thaliana)
Notes: methotrexate growth selection, single substitutions
Starting sequence: PYL1, truncated, DHFR fusion (Arabidopsis thaliana); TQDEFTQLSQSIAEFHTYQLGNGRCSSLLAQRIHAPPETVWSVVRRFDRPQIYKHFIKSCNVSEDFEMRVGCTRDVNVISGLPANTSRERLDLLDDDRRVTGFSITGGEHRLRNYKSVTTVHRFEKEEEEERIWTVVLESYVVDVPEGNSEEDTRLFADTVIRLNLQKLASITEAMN
| Change | relative binding score [%] |
| --- | --- |
| T173Y | -5.37 |
| S9E | 41.4 |
| S63F | 2.73 |
| N114R | 2.33 |
| A30K | 8.59 |
| L138M | 3.93 |
| P146G | 8.94 |
| T160D | 0.706 |
| W134Y | 63.8 |
| N177E | 14.9 |
| V143N | -3.92 |
| L169F | -9.73 |
| C60Y | 6.5 |
| I12D | -1.4 |
| K168Y | 1.01 |
| S9V | 19.7 |
| E128G | 63.5 |
| T17E | -3.82 |

Study 2 — method: RNA Bind-n-Seq; molecule type: RNA; matrix: in vitro; concentration: not given; relative to: input RNA pool; direction: higher = stronger binding
Target: RING finger protein unkempt homolog, zinc fingers 1-6, GST-SBP tag (UNK, Homo sapiens, UniProt Q9C0B0, residues 30-357)
Sequence of UniProt Q9C0B0 (30-357, looked up): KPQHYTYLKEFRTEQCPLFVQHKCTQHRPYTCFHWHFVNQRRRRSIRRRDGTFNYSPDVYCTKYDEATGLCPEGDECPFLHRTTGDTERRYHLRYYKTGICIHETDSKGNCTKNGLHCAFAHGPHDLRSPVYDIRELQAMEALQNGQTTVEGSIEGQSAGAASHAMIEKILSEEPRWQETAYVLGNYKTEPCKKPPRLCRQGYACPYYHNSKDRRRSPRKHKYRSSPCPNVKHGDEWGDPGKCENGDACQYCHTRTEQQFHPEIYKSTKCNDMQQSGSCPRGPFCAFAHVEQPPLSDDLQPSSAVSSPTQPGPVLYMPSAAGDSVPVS
Notes: RNA with constant flanks, human-mouse chimeric sites, ends assumed
| Strand | bound/input enrichment |
| --- | --- |
| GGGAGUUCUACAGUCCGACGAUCCCCUCCCCGGGCCACCCACCCCUCCCGGCUCCCCGCCAGAGCAAGGUUUUCUUCUUAUUUCAUAGCAAAUAAGAAAAAUGUUCUACGCACAUUUUGUCCUCAGUAAAAGAGGGCCUCUGGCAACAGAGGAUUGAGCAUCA | 0.44 ratio |
| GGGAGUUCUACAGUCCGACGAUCAAAGAGAAACUAAAGCAACUAAUAGAGAAGAGGAUUGGCAAAGAGAAUUUCAUAGAGAAACUAGGAUUUUAUUAGCAAACAUGAGUUUAUUCCAGAGCGUCUCAGAAACCCCAGCCAAACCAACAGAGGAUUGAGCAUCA | 16.9 ratio |
| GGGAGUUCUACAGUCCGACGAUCGGAAGUACAAUGAUGGAGAUUGAUGGUGACAAAGGCAAGCAGGGCGGGCCCACCUACUACAUAGAUACCAAUGCCCUGCGUGUUCCGAGGGAGAACAUGGAGGCCAUCUCACCACUCAAGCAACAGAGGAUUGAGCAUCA | 0.262 ratio |
| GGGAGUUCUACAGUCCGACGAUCCUGUGUGUGCUGAAUAAUGAUUUGUGAAAGAAGUUUUUCCAAGCUGUAACCCAUGCUGUUAUUAUAGUUGCUGCAAAAUGUUCUUCCUGAUAUUGAUGUUUGUUUACAACUGAAGGUCUCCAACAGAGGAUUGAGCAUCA | 0.189 ratio |
| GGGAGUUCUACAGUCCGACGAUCAAAUCGUGUGUGUCCAAUAUUGAAAGUGCUUUAUCUACACUCCAGUAUGUAAGCAGUAUAGUAGUUUCUUUAGAGAAUAGGUCUGCCAUUGUAAAGUAUAAUGCAAGCUUAGUCACUCCACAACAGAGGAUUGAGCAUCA | 1.69 ratio |
| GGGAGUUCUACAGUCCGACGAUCAUAGAUGAAAUUGAUGUGGACCAGGAAGGAAUUGCUGAAAUGAUGCUGGAUGAAAAUGCUAUUGCUCAGGUCCCACGCCCUGGCACAUCUUUGAAGCUCCCUGGCACUAACCAAACAGGACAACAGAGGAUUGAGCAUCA | 0.31 ratio |
| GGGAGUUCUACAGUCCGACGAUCAACUUCGUGCAUCGGUUUCCCUUUGUAGCUGUUUCAAUUGGCUUCCUUGUGAAUAAAGAGAUGGAGUUUGGAGUUGUGUACAGUUGUGUGGAAGAUAAGAUGUACACCGGCAGGAAAGGGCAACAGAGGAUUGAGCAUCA | 0.488 ratio |
| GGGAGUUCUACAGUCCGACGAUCGAUCAUGAACCACCAUCAGAAAUGAAGAUGAGAUUACCCAGACGAGCCCAAAACCGCGCGCUACAGAAAAAGUAAACUAACCUUGCAGAGUUCCUUAAUGAAGAUACAAGUUAAGAGAGCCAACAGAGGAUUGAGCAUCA | 0.208 ratio |

Study 3 — target: JUN, bZIP domain (human); method: DHFR protein complementation; matrix: yeast; relative to: wild-type JUN-FOS pair; direction: higher = stronger binding
Notes: single substitutions, most at no-binding floor
Starting sequence: JUN, bZIP domain (human); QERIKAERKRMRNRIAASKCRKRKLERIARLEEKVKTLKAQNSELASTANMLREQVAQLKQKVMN; partner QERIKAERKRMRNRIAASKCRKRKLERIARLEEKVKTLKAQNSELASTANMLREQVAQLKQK
| Change | binding fitness |
| --- | --- |
| E32C | -0.781 natural log |
| R53N | -0.796 natural log |
| T37L | -0.0916 natural log |
| L45W | -1.07 natural log |
| I28H | -0.986 natural log |
| E32K | -0.447 natural log |
| T48G | -1.08 natural log |
| E54A | -0.367 natural log |
| K39Y | -0.508 natural log |
| S43I | -0.164 natural log |
| E33C | -0.576 natural log |
| T48H | -0.456 natural log |
| E32Q | -0.475 natural log |
| V35A | -0.746 natural log |
| E44A | -0.291 natural log |
| K34C | -0.119 natural log |

Study 4 — target: CCNF, cyclin fold, Cln2 fusion (human); method: yeast growth competition, sequencing; matrix: yeast; notes: strong parent motif; relative to: not given; direction: higher = stronger binding
Starting sequence: RBL1 docking peptide (human); GSAKRRLFGEDPP; partner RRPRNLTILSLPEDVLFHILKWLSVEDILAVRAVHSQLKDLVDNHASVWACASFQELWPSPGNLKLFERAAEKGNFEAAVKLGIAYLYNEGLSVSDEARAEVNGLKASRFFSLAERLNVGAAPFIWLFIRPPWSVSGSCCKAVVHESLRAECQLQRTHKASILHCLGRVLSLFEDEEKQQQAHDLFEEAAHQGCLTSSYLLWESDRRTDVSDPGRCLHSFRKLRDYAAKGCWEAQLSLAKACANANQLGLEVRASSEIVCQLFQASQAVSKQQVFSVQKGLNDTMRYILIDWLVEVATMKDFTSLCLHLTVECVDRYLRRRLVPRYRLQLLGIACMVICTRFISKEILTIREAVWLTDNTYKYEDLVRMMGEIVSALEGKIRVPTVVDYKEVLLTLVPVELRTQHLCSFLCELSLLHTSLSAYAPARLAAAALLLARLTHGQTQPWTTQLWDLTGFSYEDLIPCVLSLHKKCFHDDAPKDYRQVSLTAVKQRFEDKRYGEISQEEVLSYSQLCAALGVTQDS
| Change | normalised enrichment score |
| --- | --- |
| GSAKRRLFGERPP [D11R] | 5.84 |
| GSAKRRGFGEDPP [L7G] | 0.586 |
| GSGKRRLFGEDPP [A3G] | 2.86 |
| GSAKRRKFGEDPP [L7K] | 1.04 |
| GSAKRRVFGEDPP [L7V] | 1.29 |
| GSAKDRLFGEDPP [R5D] | 0.103 |
| GMAKRRLFGEDPP [S2M] | 6.76 |
| GSAKRRLFGEDCP [P12C] | 6.63 |
| GSAKIRLFGEDPP [R5I] | 0.201 |
| GSCKRRLFGEDPP [A3C] | 7.49 |
| GSAKRRLFGEDHP [P12H] | 7.29 |
| SSAKRRLFGEDPP [G1S] | 5.78 |
| QSAKRRLFGEDPP [G1Q] | 8.76 |
| GSAKRRCFGEDPP [L7C] | 0.16 |
| GSMKRRLFGEDPP [A3M] | 3.12 |
| GSAKRFLFGEDPP [R6F] | 1.83 |
| TSAKRRLFGEDPP [G1T] | 8.62 |
| GSAKRRLFPEDPP [G9P] | 8.03 |
| KSAKRRLFGEDPP [G1K] | 7.81 |
| GSYKRRLFGEDPP [A3Y] | 4.7 |
| GSAKRRLFGIDPP [E10I] | 6.94 |
| GLAKRRLFGEDPP [S2L] | 7.17 |
| GTAKRRLFGEDPP [S2T] | 7.05 |
| GSAKRRLGGEDPP [F8G] | 0.659 |
| GSAKRDLFGEDPP [R6D] | -0.123 |

Study 5 — method: protein-binding microarray; molecule type: double-stranded DNA, one strand shown; matrix: in vitro; concentration: 250 nM; notes: 60-bp whole probe; together with: salmon DNA 0.4 mg/ml; relative to: random background probes; direction: higher = stronger binding; constant ends, left off below: GCCTAGCAC … GTCTTGATTCGCTTGACGCTGCTG
Target: Interferon regulatory factor 5, full length, phosphomimetic (IRF5, Homo sapiens, UniProt Q13568-2, residues 1-514, K96S/S451D/S453D/S456D/S462D)
| Strand | log fluorescence [z-score] |
| --- | --- |
| TTTGATATCAGACTGGATTAGTGCTAG | 0.462 |
| TTAGGACCGCTACTGCTTTAGTGCTAG | -0.33 |
| AAATATATACAAACTAAGGATGTGCTA | 0.543 |
| GATGGACTGCTTCTCCTGACGTGCTAG | -0.0365 |
| TTAGGTATCGGTATCAGTTAGTGCTAG | 7.87 |
| TCATCACTCTAATCTCACACTGTGCTA | 0.845 |
| TTAGGTCTCGGTCTCGGTGAGTGCTAG | 0.648 |
| TCAAATTTGAGTCACTGACTGTGCTAG | -0.167 |
| CTTTAACTCATTTTCGTTTTGTGCTAG | 5.03 |
| GTAGGACTGGGTTTCGGTTAGTGCTAG | 7.94 |
| TTAGGTTTCCTTTCCCTGTAGTGCTAG | 1.54 |
| TTAGAACTTGGGTTTCGATTAGTGCTA | 6.82 |
| TTAGGTTTCGCCTATCGGTTAGTGCTA | 7.6 |
| TTAGGTTTCGGACTGTGTTAGTGCTAG | 5.16 |
| GGCCATTTCCCTTGCCGCGCGTGCTAG | -0.0937 |
| GACGATTCGAGTTTCGAGACGTGCTAG | 4.62 |
| CTCCCATTATATTTTAATCAGTGCTAG | 0.594 |
| GACGAAATGGGGACTGGAGACGTGCTA | 0.153 |
| TTAGATATCGGGTTTCGATTAGTGCTA | 7.55 |
| TTAGGACTGGGTATCGGTTAGTGCTAG | 4.41 |
| TGTGATCTCATATGAAAACAGTGCTAG | 0.528 |
| GGTCTTCTGGGCTGTTTAGTCGTGCTA | -0.517 |
| TCAACCATCCCTTATAAAACTGTGCTA | 0.45 |
| TTAGGTTTGGGTCTCGGTTAGTGCTAG | 0.268 |
| GACGGTATCGACTATCGGTACGTGCTA | 6.76 |

Single results of other studies
| Substance | target | assay | test system | conditions | scale | endpoint | value |
| --- | --- | --- | --- | --- | --- | --- | --- |
| PhoQ, residues 284 288 289 292 302 303 ALSMDL | PhoP, residues 12 14 15 18 19 NNFVT (Escherichia coli, UniProt P23836) | Sort-seq, refers to: YFP reporter | E. coli | PhoQ-PhoP variant library, together with: 10 µM Mg2+ | relative to: high Mg2+ state, higher = stronger signaling | fold induction | 9.56 |

For quick reference, copied from above (study 5):
| Strand | log fluorescence [z-score] |
| --- | --- |
| TTTGATATCAGACTGGATTAGTGCTAG | 0.462 |
| TTAGGACCGCTACTGCTTTAGTGCTAG | -0.33 |
| AAATATATACAAACTAAGGATGTGCTA | 0.543 |
| GATGGACTGCTTCTCCTGACGTGCTAG | -0.0365 |
| TTAGGTATCGGTATCAGTTAGTGCTAG | 7.87 |
| TCATCACTCTAATCTCACACTGTGCTA | 0.845 |
| TTAGGTCTCGGTCTCGGTGAGTGCTAG | 0.648 |
| TCAAATTTGAGTCACTGACTGTGCTAG | -0.167 |
| CTTTAACTCATTTTCGTTTTGTGCTAG | 5.03 |
| GTAGGACTGGGTTTCGGTTAGTGCTAG | 7.94 |
